Literature values that unrelated publications cite.
Compare with care: the assays were run in different laboratories. ± gives the spread as reported.
Sequence of UniProt P31390 (whole entry, looked up): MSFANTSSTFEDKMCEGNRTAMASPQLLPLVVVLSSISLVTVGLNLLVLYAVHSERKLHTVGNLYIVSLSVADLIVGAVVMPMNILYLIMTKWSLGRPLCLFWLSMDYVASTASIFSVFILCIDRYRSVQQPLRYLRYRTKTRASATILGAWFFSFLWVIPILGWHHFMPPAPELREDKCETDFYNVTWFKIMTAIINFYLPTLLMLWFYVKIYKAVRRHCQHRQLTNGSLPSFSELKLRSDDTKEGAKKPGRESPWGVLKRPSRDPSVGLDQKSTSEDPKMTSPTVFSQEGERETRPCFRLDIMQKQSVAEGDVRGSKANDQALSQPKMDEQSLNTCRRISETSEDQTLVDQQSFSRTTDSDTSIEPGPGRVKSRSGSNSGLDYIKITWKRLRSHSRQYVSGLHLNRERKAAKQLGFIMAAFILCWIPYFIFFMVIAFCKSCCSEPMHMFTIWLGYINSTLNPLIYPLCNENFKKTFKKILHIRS

| SMILES | target or system | test | test system | conditions | scale | measurement | value |
| --- | --- | --- | --- | --- | --- | --- | --- |
| C[C@@H]1C(=O)C=C2[C@H]1CN(C)C[C@@H]2C |  |  | rabbit | dose not given |  | blood glucose | decreased |
| CC1=C(C)C(=O)OC(C(C)(O)C2(O)CCC3(O)C4CC5OC56CC=CC(=O)C6(C)C4CCC32C)C1 (stereo not shown) | Hep3B | cell growth |  |  |  | IC50 | 3.64 µM |
| N=C(N)NCCC[C@@H]1NC(=O)[C@H](CCCCNC(=O)CCOCCOCCOCCOCCNC(=O)CC[C@H](NC(=O)CCOCCOCCOCCOCCNC(=O)c2ccc(NN)nc2)C(=O)NCCOCCOCCOCCOCCC(=O)NCCCC[C@@H]2NC(=O)[C@@H](Cc3ccccc3)NC(=O)[C@H](CC(=O)O)NC(=O)CNC(=O)[C@H](CCCNC(=N)N)NC2=O)NC(=O)[C@@H](Cc2ccccc2)NC(=O)[C@H](CC(=O)O)NC(=O)CNC1=O [technetium-99m labelled] |  |  | athymic nude mouse, feces | dose not given, 2 h |  | intact compound | 70% |
| COC[C@@H](NC(C)=O)C(=O)NCc1ccc(OCc2ccccc2F)cc1 |  |  | mouse, MES seizure | intraperitoneal, time of peak effect |  | ED50 | 6.7 mg/kg |
| C[C@]12CC[C@@H](O)C[C@@H]1CC[C@@H]1[C@@H]2C(=O)C[C@]2(C)C(C#N)=CC[C@@H]12 |  | loss of swimming reflex | tadpole |  |  | EC50 | 5.48 ± 0.12 µM |
| O=[N+]([O-])c1ccc(-c2cc(C3CC4CCC3N4)cnc2F)cc1 (racemic) |  | hypothermia | mouse |  |  | ED50 | 0.21 mg/kg |
| O=C1N[C@@H](Cc2ccccc2)C(=O)N2CCC[C@@H]2C(=O)N[C@@H](Cc2ccccc2)C(=O)N[C@H]1Cc1c[nH]c2ccccc12 |  | antinociception | C57BL/6J mouse | intracerebroventricular, at peak response |  | ED50 | 1.74 nmol |
| COC[C@@H](NC(C)=O)C(=O)NCc1ccc(OCc2ccccc2)cc1 |  | psychomotor seizure protection | mouse 6 Hz seizure model | intraperitoneal, with: 32 mA stimulus |  | ED50 | < 15 mg/kg |
| O=C(/C=C/c1ccc(OCCN2CCNCC2)cc1)c1ccccc1 |  | antioxidant activity |  |  |  | EC50 | 0.0228 µM |
| O=[N+]([O-])c1cccc(-c2cc(C3CC4CCC3N4)cnc2F)c1 (racemic) |  | spontaneous activity | mouse |  |  | ED50 | 6.5 mg/kg |
| CN[C@H](CC(C)C)C(=O)N[C@H]1C(=O)N[C@@H](CC(N)=O)C(=O)N[C@H]2C(=O)N[C@H]3C(=O)N[C@H](C(=O)N[C@H](C(=O)O)c4cc(O)cc(O)c4-c4cc3ccc4O)[C@H](O)c3ccc(c(Cl)c3)Oc3cc2cc(c3O[C@@H]2O[C@H](CO)[C@@H](O)[C@H](O)[C@H]2O[C@H]2C[C@](C)(NCc3ccc(-c4ccc(Cl)cc4)cc3)[C@H](O)[C@H](C)O2)Oc2ccc(cc2Cl)[C@H]1O |  |  | mouse, plasma | intravenous, 10 mg/kg |  | half-life | 12 h |
| C[C@@H](O)[C@H](NC(=O)[C@H]1NC(=O)[C@H]([C@@H](C)O)NC(=O)[C@H](CCCNC(=N)N)NC(=O)[C@@H](Cc2c[nH]c3ccccc23)NC(=O)[C@H](Cc2ccc(O)cc2)NC(=O)[C@@H](NC(=O)[C@H](N)Cc2ccccc2)CSSC1(C)C)C(N)=O |  | antagonist | guinea pig ileum |  |  | pA2 | 7.36 |
| O=C(OCC[18F])C1C2CCC(CC1c1ccc(/C=C\I)cc1)N2 (stereo not shown) | SERT | microPET | anaesthetised, midbrain |  |  | time to peak uptake | 95 min |
| COc1cc(C=O)ccc1OCc1cccc(CO)n1 |  |  | sickle cell whole blood | 2 mM |  | HbS modification | 18% |
| CCOC(=O)C1C(OC(c2ccc(Cl)cc2)c2ccc(Cl)cc2)CC2CCC1N2C (single isomer, unassigned) | Hrh1 (Rattus norvegicus, UniProt P31390) |  |  |  |  | Ki | 37.6 ± 2.99 µM |
| CC1(C)C(=O)N(c2ccc(C#N)c(C(F)(F)F)c2)C(=S)N1c1ccc(C(=O)O)c(F)c1 |  |  | human metastatic castration-resistant prostate cancer | dose not given |  | activity | inactive |
| CC1(O)CC23CC(O)C4(O)C(C5OC5C4(C)C)C(C)(O)C2CCC1C3O (stereo not shown) |  |  | diabetic neuropathic pain model | dose not given | baseline: gabapentin | relative potency | 100 fold |
| COC[C@@H](NC(C)=O)C(=O)NCc1ccc(OCc2cccc(F)c2)cc1 |  |  | rats, tibial nerve injury | ip, 10 mg/kg |  | duration of reversal of allodynia | ~4 h |
| CC1=C(C)C(=O)OC(C(C)(O)C2(O)CCC3(O)C4CC5OC56C(O)C=CC(=O)C6(C)C4CCC32C)C1 (stereo not shown) | Hep G2 | cell growth |  |  |  | IC50 | 1.06 µM |

For quick reference, copied from above:
| SMILES | target or system | test | test system | conditions | scale | measurement | value |
| --- | --- | --- | --- | --- | --- | --- | --- |
| O=[N+]([O-])c1cccc(-c2cc(C3CC4CCC3N4)cnc2F)c1 (racemic) |  | spontaneous activity | mouse |  |  | ED50 | 6.5 mg/kg |
| CN[C@H](CC(C)C)C(=O)N[C@H]1C(=O)N[C@@H](CC(N)=O)C(=O)N[C@H]2C(=O)N[C@H]3C(=O)N[C@H](C(=O)N[C@H](C(=O)O)c4cc(O)cc(O)c4-c4cc3ccc4O)[C@H](O)c3ccc(c(Cl)c3)Oc3cc2cc(c3O[C@@H]2O[C@H](CO)[C@@H](O)[C@H](O)[C@H]2O[C@H]2C[C@](C)(NCc3ccc(-c4ccc(Cl)cc4)cc3)[C@H](O)[C@H](C)O2)Oc2ccc(cc2Cl)[C@H]1O |  |  | mouse, plasma | intravenous, 10 mg/kg |  | half-life | 12 h |
